Results collected from several papers.
Parts stem from different laboratories: compare values within a part only. Changes are numbered by the printed parent chain.
Sequence of UniProt P41143 (whole entry, looked up): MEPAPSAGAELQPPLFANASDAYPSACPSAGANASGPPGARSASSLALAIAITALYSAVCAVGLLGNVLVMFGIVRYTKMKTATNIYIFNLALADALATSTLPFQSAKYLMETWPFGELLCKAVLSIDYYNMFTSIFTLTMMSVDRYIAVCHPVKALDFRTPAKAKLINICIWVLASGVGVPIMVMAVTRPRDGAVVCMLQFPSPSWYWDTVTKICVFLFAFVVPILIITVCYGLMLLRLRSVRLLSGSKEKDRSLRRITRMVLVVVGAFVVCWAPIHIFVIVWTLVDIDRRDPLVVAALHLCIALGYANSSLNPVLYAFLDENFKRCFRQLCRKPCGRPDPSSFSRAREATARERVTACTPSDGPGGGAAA

Study 1
Target: vanadate, free oxyanion
Technique: microfluidic competitive inhibition
Medium: in vitro, cell-free expressed
Concentration: not given
Setting: derived from inhibition constants, unchanged parent 676 nM
Direction: lower = stronger binding
Measurement: oxyanion analog dissociation constant
Starting sequence: PafA, mature enzyme, eGFP fusion (Elizabethkingia meningoseptica, UniProt Q9KJX5); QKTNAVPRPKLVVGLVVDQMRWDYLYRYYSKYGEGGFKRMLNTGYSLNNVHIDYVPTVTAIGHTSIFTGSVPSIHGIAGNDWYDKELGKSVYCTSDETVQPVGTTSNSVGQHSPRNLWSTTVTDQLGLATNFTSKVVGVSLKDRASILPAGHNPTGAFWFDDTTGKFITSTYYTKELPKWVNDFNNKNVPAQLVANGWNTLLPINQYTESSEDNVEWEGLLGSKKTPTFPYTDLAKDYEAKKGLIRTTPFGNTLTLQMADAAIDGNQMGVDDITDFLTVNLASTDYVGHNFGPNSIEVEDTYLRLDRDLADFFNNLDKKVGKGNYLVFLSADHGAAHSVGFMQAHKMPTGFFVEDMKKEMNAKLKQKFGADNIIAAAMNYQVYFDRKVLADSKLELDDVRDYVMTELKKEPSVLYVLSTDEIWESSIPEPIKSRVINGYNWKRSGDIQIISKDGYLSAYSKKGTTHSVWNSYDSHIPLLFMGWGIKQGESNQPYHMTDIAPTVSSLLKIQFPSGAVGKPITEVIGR
G265V: 741 nM
Y415G: 662 nM
S418G: 728 nM
Y238V: 532 nM
Q267G: 872 nM
R434G: 1.42 µM
V16A: 504 nM
K452G: 674 nM
T465V: 577 nM
Q1V: 842 nM
T274V: 679 nM

Study 2
Target: CCNA1, cyclin fold, Cln2 fusion (human)
Technique: yeast growth competition, sequencing
Medium: yeast
Setting: weak parent motif
Reference: not given
Direction: higher = stronger binding
Measurement: normalised enrichment score
Starting sequence: viral docking peptide; CKVKRKLFGSENI; partner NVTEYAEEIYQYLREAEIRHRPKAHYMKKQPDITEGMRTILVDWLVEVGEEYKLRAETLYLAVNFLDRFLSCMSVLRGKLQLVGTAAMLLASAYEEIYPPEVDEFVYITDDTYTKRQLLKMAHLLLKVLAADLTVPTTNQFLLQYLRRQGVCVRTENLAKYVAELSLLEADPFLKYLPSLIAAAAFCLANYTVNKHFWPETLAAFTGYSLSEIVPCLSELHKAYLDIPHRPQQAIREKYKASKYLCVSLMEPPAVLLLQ
R5K: -0.266
R5A L7A: 0.285
E11A: 0.473
C1A: 0.547
N12A: 0.239
R5A: 0.245
S10A: 0.574
F8A: 0.241
L7A: 0.352

Study 3
Target: Interferon regulatory factor 7, full length, phosphomimetic (IRF7, Homo sapiens, UniProt Q92985, residues 1-503, S471D/S472D/S475D/S476D/S477D/S483D/S484D/S487D)
Sequence of UniProt Q92985 (whole entry, unmodified, looked up): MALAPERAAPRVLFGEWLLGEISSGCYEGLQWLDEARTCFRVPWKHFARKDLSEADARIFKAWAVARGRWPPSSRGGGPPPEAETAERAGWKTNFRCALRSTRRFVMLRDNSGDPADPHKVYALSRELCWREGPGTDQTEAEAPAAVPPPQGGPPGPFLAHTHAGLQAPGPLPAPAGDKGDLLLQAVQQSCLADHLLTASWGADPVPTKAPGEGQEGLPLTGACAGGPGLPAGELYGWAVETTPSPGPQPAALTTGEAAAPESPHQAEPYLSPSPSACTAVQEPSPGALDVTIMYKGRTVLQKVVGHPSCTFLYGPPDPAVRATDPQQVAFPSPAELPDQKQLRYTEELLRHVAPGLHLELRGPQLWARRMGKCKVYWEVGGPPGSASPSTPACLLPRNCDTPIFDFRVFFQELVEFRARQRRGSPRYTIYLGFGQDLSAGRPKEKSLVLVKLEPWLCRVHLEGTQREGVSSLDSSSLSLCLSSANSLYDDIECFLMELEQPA
Technique: protein-binding microarray
Molecule type: double-stranded DNA, one strand shown
Medium: in vitro
Concentration: 2200 nM top
Setting: 60-bp whole probe
Together with: salmon DNA 0.4 mg/ml
Reference: random background probes
Direction: higher = stronger binding
Measurement: fitted relative affinity
Constant ends, left off below: GCCTAGCAC … GTCTTGATTCGCTTGACGCTGCTG
GACGGTCTCGGTCTCGGGACGTGCTAG: -0.148 z-score
GACGGTAACGGTTTCGGGACGTGCTAG: 2.28 z-score
TTAGGTATTGACACTGGGTTAGTGCTA: -0.122 z-score
CAATATTAGAGTCTCAACCCGTGCTAG: 0.115 z-score
TTAGGTATCAGTATCGATTAGTGCTAG: 0.273 z-score
TTAGGACTGGCCTTTCGGTTAGTGCTA: 1.46 z-score
TTAGGAATGGGACTGGGTTAGTGCTAG: -0.678 z-score
GACGAACTGAGTATCTAGACGTGCTAG: -0.353 z-score

Study 4
SMILES: O=C(NCc1ncc(C(F)(F)F)cc1Cl)c1ccc2c(c1)C1(CCS(=O)(=O)CC1)[C@@H](C1CC1)N2S(=O)(=O)c1ccc(F)cc1
Concentration: 10 µM
Measurement: inhibition
SLC6A4 (Homo sapiens, UniProt P31645); cell-free assay: -4.88%
DRD5 (Homo sapiens, UniProt P21918); ligand displacement: -0.49%
OPRD1 (Homo sapiens, UniProt P41143); ligand displacement: -2.65%
